Assay results gathered from unrelated publications.
Protocols differ between the studies behind these lines. Several values in a cell are separate wells, animals, samples, runs or records. ± marks the error that the study gave.

The tissue uptake of `COc1ccc2c(c1)C(C)(C)C(/C=C/C1=C(Oc3ccc(C(=O)NCCCCOc4cc(CN(Cc5ccccn5)Cc5ccccn5)cc(CN(Cc5ccccn5)Cc5ccccn5)c4)cc3)C(=C/C=C3/N(CCCCS(=O)(=O)[O-])c4ccc(OC)cc4C3(C)C)CCC1)=[N+]2CCCCS(=O)(=O)[O-].O=[N+]([O-])[O-].O=[N+]([O-])[O-].[99Tc+].[C-]#[O+].[C-]#[O+].[C-]#[O+].[Zn+2]` is reported as 2.86 %ID/g and 3.19 %ID/g and 0.32 %ID/g and 0.27 %ID/g (BALB/c mice, healthy, stomach with contents; 12 h post-injection).
`Cc1cc(C)n(CCN(CCN)CCCCCCNC(=O)[C@@H](N)Cc2c[nH]c3ccccc23)n1.[99Tc+].[C-]#[O+].[C-]#[O+].[C-]#[O+]` gave a tissue uptake of 5.3 ± 3.3 %ID/g (BALB/c nude mice A549 xenograft, stomach; intravenous, 15 min).
`CC(C)C[C@H](NC(=O)[C@@H](CCCCNC(=O)[C@@H](Cc1ccccc1)NC(=O)CCCCCCCNC(=O)CN1CCN(CC(=O)O)CCN(CC(=O)O)CCN(CC(=O)O)CC1)NC(=O)[C@H](Cc1ccc(O)cc1)NC(=O)[C@H](CO)NC(=O)[C@H](Cc1c[nH]c2ccccc12)NC(=O)[C@H](Cc1c[nH]cn1)NC(=O)[C@@H]1CCC(=O)N1)C(=O)N[C@@H](CCCNC(=N)N)C(=O)N1CCC[C@H]1C(=O)NCC(N)=O` [indium-111 labelled] has a tissue uptake of 0.33 ± 0.14 %ID/g (male athymic nude mice, DU-145 prostate cancer xenograft, spleen; intravenous, dose not given, 1 h, added: unlabeled blocking peptide 10 µg).
With `CCCC[C@H](NC(=O)CCCCCCCNC(=O)CN1CCN(CC(=O)O)CCN(CC(=O)O)CC1)C(=O)N[C@H]1CC(=O)NCCCC[C@@H](C(N)=O)NC(=O)[C@H](Cc2c[nH]c3ccccc23)NC(=O)[C@H](CCCNC(=N)N)NC(=O)[C@@H](Cc2ccccc2)NC(=O)[C@H](Cc2c[nH]cn2)NC1=O` [fluorine-18 labelled] the tissue uptake was 0.99 ± 0.91 %ID/g (C57 mice B16-F10 melanoma, skin; intravenous, 0.37 MBq, 1 h).
For `O=C([O-])CN1CCN(CC(=O)[O-])CCN(CC(=O)NC[C@H]2CC[C@H](C(=O)N[C@H](Cc3cnc4ccccc4c3)C(=O)NCCCC[C@H](NC(=O)N[C@@H](CCC(=O)O)C(=O)O)C(=O)O)CC2)CCN(CC(=O)[O-])CC1.[64Cu+2]`, the tissue uptake was 20.6 %ID/g (ex vivo gamma counting; 22Rv1 tumour-bearing mice, liver; intravenous, 0.74 MBq, 2 h post-injection).
With `CCCC[C@H](NC(=O)COCCOCCNC(=O)CN1CCN(CC(=O)O)CCN(CC(=O)O)CC1)C(=O)N[C@H]1CC(=O)NCCCC[C@@H](C(N)=O)NC(=O)[C@H](Cc2c[nH]c3ccccc23)NC(=O)[C@H](CCCNC(=N)N)NC(=O)[C@@H](Cc2ccccc2)NC(=O)[C@H](Cc2c[nH]cn2)NC1=O` [fluorine-18 labelled] the tissue uptake was 0.77 ± 0.21 %ID/g (C57 mice, B16/F10 melanoma, blood; intravenous, 1 h, added: NDP-MSH 10 µg).
The tissue uptake of `O=C(NCC1OC2CCC=CCCC2O1)c1ccc(COCCOCCOCC[18F])cc1` (stereo not shown) is reported as 2.8 ± 0.03 %ID/g (healthy female BALB/c nude mice, lungs; intravenous, 7.4 MBq per mouse, 15 min).
With `COc1ccc(Nc2nc(Nc3ccc(OCCOCCOCC[18F])cc3)ncc2Br)cc1` the tissue uptake was 2.43 ± 0.07 %ID/g (ICR mice, S180 tumour-bearing, brain; intravenous, 370 kBq, 15 min).
`N#C[C@@H]1CCCN1C(=O)CNC(=O)c1ccnc2ccc(OCCCN3CCN(C(=O)CCc4ccc5c(c4)CN4CCN6CC(=O)[O][68Ga-]([O]C(=O)C4)([O]5)[O]c4ccc(CCC(=O)N5CCN(CCCOc7ccc8nccc(C(=O)NCC(=O)N9CCC[C@H]9C#N)c8c7)CC5)cc4C6)CC3)cc12` has a tissue uptake of 6.12 ± 2.06 %ID/g (BALB/c nude mice, U-87 MG xenograft, intestine; 1 h, blocking, added: DOTA-FAPI-04 40 nmol/mouse co-injected).
`Cc1cc(C)n(CCN(CCN)CCCCCCNC(=O)[C@@H](N)Cc2c[nH]cn2)n1.[99Tc+].[C-]#[O+].[C-]#[O+].[C-]#[O+]` has a tissue uptake of 0.44 ± 0.09 %IA/g (BALB/c nude mice, MCF7 xenograft, pancreas; intravenous, 4 h).
For `COc1ccc(Nc2nc(Nc3ccc(OCCOCC[18F])cc3)ncc2Br)cc1`, the tissue uptake was 2.61 ± 0.2 %ID/g (ICR mice, S180 tumour-bearing, lung; intravenous, 370 kBq, 60 min).
With `CCCC[C@H](NC(=O)CNC(=O)CNC(=O)[C@H](CCCCNC(=O)[C@H](CC(=O)O)NC(=O)C(C)c1ccc(CC(C)C)cc1)NC(=O)CN1CCN(CC(=O)O)CCN(CC(=O)O)CCN(CC(=O)O)CC1)C(=O)N[C@H]1CC(=O)NCCCC[C@@H](C(N)=O)NC(=O)[C@H](Cc2c[nH]c3ccccc23)NC(=O)[C@H](CCCNC(=N)N)NC(=O)[C@@H](Cc2ccccc2)NC(=O)[C@H](Cc2c[nH]cn2)NC1=O` (stereo partly shown) [lutetium-177 labelled] the tissue uptake was 0.05 ± 0.03 %ID/g (C57 mice, tumour-bearing, brain; 2 h).
`O=C(NCC1OC2CCC=CCCC2O1)c1ccc([18F])nc1` (stereo not shown) has a tissue uptake of 4.9 ± 1.3 %ID/g (healthy female BALB/c nude mice, spleen; intravenous, 7.4 MBq per mouse, 10 min).

Excerpt of the above:
The tissue uptake of `O=C(NCC1OC2CCC=CCCC2O1)c1ccc(COCCOCCOCC[18F])cc1` (stereo not shown) is reported as 2.8 ± 0.03 %ID/g (healthy female BALB/c nude mice, lungs; intravenous, 7.4 MBq per mouse, 15 min).
